Results pooled from the literature.
Compare with care: the assays were run in different laboratories.
UniProt P42679, sequence (whole entry, looked up): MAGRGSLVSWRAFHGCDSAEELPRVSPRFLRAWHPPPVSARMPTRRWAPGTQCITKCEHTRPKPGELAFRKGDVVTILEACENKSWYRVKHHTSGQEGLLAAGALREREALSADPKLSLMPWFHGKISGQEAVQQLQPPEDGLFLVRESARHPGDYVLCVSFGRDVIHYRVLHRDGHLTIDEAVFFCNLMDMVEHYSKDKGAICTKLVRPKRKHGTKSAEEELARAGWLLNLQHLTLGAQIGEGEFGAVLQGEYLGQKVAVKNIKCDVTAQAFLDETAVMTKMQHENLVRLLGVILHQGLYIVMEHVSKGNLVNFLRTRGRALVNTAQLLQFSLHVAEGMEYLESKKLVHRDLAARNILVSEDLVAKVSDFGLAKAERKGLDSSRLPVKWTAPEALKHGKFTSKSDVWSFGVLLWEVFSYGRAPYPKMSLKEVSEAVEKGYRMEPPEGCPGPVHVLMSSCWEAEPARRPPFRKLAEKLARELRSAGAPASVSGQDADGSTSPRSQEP
UniProt P00519, sequence (whole entry, unmodified, looked up): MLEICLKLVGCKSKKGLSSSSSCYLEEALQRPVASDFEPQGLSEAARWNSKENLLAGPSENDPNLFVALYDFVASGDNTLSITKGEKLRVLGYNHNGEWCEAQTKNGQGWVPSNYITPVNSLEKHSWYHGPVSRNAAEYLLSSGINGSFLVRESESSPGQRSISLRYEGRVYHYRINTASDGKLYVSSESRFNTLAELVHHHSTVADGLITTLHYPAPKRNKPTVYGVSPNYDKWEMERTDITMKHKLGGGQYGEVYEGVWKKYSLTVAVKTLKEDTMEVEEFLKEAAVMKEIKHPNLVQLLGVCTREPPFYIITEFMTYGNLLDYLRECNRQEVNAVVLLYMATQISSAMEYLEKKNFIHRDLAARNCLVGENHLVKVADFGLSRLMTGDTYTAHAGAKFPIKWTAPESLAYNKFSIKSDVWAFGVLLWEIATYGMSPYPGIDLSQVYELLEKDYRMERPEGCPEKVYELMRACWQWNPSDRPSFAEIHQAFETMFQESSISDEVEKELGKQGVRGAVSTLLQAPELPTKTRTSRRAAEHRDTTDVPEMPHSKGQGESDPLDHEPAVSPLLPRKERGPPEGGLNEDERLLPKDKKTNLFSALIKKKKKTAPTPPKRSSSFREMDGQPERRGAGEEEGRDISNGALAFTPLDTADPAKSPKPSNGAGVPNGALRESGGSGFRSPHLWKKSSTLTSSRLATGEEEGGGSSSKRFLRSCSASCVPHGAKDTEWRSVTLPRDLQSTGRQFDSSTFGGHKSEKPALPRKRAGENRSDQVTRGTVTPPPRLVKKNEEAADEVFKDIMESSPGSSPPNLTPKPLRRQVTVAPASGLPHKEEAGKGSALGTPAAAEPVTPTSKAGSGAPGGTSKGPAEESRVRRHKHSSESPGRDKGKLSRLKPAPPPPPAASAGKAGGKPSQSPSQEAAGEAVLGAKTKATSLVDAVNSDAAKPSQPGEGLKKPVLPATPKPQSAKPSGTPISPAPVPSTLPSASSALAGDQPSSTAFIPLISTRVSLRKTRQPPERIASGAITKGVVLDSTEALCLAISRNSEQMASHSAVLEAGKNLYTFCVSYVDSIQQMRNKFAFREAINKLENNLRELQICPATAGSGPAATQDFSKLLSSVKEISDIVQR
UniProt P07332, sequence (whole entry, looked up): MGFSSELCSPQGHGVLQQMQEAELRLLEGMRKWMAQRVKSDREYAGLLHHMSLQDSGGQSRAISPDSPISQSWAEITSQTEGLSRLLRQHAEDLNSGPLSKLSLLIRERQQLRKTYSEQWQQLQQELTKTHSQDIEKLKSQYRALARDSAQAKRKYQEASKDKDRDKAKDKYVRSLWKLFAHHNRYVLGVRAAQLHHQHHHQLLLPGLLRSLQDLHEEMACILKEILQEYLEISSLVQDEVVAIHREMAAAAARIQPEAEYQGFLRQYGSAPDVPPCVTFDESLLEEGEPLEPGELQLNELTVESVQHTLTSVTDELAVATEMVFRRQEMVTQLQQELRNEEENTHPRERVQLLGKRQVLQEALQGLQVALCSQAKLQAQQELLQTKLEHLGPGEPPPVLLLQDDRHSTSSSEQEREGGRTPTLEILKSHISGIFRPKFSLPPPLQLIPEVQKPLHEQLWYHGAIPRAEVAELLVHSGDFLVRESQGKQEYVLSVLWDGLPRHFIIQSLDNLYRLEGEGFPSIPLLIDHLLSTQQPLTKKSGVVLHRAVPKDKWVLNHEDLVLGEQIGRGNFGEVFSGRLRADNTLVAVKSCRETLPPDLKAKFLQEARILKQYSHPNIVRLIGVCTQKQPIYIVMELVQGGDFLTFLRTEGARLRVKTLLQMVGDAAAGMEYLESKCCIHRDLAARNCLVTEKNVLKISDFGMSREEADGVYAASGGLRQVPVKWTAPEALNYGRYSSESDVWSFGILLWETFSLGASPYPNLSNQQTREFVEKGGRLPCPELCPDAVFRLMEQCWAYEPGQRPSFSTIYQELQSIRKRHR
UniProt P35462, sequence (whole entry, looked up): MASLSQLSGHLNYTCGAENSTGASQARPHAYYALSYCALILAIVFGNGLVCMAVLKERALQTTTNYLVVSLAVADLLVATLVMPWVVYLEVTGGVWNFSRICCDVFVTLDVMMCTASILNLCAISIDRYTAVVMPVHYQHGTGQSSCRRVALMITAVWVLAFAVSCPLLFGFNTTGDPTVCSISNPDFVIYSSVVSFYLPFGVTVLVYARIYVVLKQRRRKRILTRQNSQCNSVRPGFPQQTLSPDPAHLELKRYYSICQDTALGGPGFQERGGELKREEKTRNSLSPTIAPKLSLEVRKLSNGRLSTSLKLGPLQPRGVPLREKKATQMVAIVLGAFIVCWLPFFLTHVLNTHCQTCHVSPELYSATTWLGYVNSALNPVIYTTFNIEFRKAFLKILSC
UniProt Q9UBN7, sequence (whole entry, looked up): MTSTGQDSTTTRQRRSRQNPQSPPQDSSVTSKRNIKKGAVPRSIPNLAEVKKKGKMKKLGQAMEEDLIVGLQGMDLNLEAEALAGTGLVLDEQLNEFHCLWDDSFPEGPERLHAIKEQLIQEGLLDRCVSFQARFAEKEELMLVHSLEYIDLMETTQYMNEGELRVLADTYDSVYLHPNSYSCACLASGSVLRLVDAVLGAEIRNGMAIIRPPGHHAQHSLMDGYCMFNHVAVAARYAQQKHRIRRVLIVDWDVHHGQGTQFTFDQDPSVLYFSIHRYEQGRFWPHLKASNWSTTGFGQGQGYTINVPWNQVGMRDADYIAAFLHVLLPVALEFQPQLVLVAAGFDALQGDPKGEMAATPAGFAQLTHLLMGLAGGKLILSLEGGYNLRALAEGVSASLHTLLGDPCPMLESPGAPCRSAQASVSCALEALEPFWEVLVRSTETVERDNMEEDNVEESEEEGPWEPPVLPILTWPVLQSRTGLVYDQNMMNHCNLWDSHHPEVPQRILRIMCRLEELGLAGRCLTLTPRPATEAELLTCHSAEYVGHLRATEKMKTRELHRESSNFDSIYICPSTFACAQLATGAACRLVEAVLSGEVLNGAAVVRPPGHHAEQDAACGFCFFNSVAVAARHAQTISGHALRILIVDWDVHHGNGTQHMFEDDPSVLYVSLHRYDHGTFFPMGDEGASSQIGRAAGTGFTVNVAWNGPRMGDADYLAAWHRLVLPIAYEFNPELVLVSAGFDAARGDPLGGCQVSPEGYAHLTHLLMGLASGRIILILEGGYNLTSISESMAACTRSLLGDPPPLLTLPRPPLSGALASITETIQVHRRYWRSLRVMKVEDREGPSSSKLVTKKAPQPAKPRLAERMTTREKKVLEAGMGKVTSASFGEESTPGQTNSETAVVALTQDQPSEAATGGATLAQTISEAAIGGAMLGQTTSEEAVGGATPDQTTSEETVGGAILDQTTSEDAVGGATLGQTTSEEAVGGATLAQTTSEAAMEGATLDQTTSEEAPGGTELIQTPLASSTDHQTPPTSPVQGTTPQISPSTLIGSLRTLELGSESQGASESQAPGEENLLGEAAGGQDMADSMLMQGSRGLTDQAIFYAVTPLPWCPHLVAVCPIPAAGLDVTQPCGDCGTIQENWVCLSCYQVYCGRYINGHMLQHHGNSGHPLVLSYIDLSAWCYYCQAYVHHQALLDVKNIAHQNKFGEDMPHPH

CCOC(=O)[C@@]12C[C@@H]1[C@@H](n1ccc3c(NC)nc(C#Cc4ccc(Cl)s4)nc31)[C@H](O)[C@@H]2O gave a concentration of 13 ng/mL (male Sprague-Dawley rat, plasma; oral, 3 mg/kg, 4 h).
With COc1cc(-c2cncc3c2CN(C)Cc2cc(N4CCNCC4)ccc2-3)cc(OC)c1OC the remaining activity was 86% (FES (Homo sapiens, UniProt P07332); enzyme activity, inhibitor; 1 µM).
For CCc1cc(-c2noc(-c3cc(OC)nc(C4CCCC4)c3)n2)cc(C)c1OC[C@@H](O)CO, the concentration was 1260 ng/mL (Wistar rat, plasma; oral, 10 mg/kg, 3 h, single dose).
For CC(C)(Nc1nc(-c2ccccn2)nc2ccccc12)c1ccccn1, the concentration was 41 ng/mL (female BALB/c mouse, plasma; intravenous, 1 mg/kg, 4 h).
O=C1CCC(N2Cc3cc(CO)c(F)cc3C2=O)C(=O)N1 (stereo not drawn) gave a concentration of 286 ng/mL (male CD-1 mouse, plasma; intravenous, 1 mg/kg, 15 min).
With CNc1ncc2c(/C=C/C(=O)N3CCC(OC)CC3)nn(Cc3cccc(C(F)(F)F)c3)c2n1 the remaining activity was 102% (MATK (Homo sapiens, UniProt P42679); enzyme activity, inhibitor, radiometric; 1 µM).
With COc1cccc(-c2n[nH]c(SCc3ccccn3)n2)c1OC the concentration was 8 ng/mL (male Sprague-Dawley rat, plasma; oral, 30 mg/kg, 24 h, single dose).
With O=C(NO)c1cccc(OS(=O)(=O)Oc2ccc3ccccc3c2)c1 the Ki was 0.04 µM (HDAC6 (Homo sapiens, UniProt Q9UBN7); enzyme activity, inhibitor, fluorescence).
Cc1noc(C)c1Cn1cc(N2C(=O)CN(Cc3cccc(O)c3)C2=O)cn1 gave a concentration of 28.4 ng/mL (male Sprague-Dawley rat, plasma; oral, 100 mg/kg, 2 h, single dose).
The concentration of O=c1nc(N2CCN(CC3CCCCC3)CC2)sc2c([N+](=O)[O-])cc(C(F)(F)F)cc12 is reported as 2210 ng/mL (CD-1 mouse, plasma; oral, 100 mg/kg, 1 h).
With CCNC(=O)c1c(C)[nH]c(C)c1S(=O)(=O)Nc1ccc(C(F)(F)F)c(Cl)c1 the IC50 was 15 µM (DRD3 (Homo sapiens, UniProt P35462); G protein activation, antagonist, BRET).
COc1ccc2c(=O)n(C)c(-c3ccccc3)nc2c1 has a concentration of 1.39 ng/mL (male Sprague-Dawley rat, lung; oral, 30 mg/kg, 15 min).
The concentration of NCc1cc2c(cc1F)C(=O)N(C1CCC(=O)NC1=O)C2 (stereo not drawn) is reported as 0.82 ng/mL (male cynomolgus monkey, plasma; oral, 0.3 mg/kg, 30 min).
C=CC(=O)N1CCC(COCC(=O)N2CCN(c3nc(-c4cnc(N)nc4C(F)F)nc(N4CCOC[C@@H]4C)n3)CC2)CC1 gave a remaining binding of 100% (Tyrosine-protein kinase ABL1, phosphorylated (ABL1, Homo sapiens, UniProt P00519, E255K); binding, competition with immobilised ligand; 1 µM).
CCOC(=O)c1cc(Cl)cc(NC(=O)c2sc(Cl)cc2S(=O)(=O)N(C)c2ccc(OCC)c(OC)c2)c1 has a concentration of 5.73 ng/g (male C57BL/6 mouse, brain; intraperitoneal, 10 mg/kg, 2 h).

A few entries again:
The concentration of NCc1cc2c(cc1F)C(=O)N(C1CCC(=O)NC1=O)C2 (stereo not drawn) is reported as 0.82 ng/mL (male cynomolgus monkey, plasma; oral, 0.3 mg/kg, 30 min).
COc1ccc2c(=O)n(C)c(-c3ccccc3)nc2c1 has a concentration of 1.39 ng/mL (male Sprague-Dawley rat, lung; oral, 30 mg/kg, 15 min).
